Published values pooled from the literature.
A part holds a random share of what one study measured. “And” joins repeats or separate records; there may be more than shown.
Chain of UniProt P08172 (whole entry, looked up): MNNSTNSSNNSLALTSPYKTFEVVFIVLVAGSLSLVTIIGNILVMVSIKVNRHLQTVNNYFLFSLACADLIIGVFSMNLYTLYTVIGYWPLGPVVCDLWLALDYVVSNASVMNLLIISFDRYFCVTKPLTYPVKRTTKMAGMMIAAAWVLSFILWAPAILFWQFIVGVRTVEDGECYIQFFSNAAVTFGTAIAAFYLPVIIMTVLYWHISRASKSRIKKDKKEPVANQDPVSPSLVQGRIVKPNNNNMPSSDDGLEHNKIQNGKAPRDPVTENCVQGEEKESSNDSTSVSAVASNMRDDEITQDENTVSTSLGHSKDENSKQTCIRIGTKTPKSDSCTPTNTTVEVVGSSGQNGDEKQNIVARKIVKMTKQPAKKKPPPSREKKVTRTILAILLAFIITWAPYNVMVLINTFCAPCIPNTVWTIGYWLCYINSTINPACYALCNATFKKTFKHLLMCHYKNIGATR
Chain of UniProt P06493 (whole entry, looked up): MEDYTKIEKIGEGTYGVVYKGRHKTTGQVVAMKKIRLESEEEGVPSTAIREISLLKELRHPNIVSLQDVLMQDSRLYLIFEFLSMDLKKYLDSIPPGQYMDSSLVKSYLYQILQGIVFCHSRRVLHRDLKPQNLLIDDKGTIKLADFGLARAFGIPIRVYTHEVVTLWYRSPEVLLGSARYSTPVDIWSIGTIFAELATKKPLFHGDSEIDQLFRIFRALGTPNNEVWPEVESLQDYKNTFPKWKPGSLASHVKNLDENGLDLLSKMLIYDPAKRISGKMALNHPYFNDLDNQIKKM
Chain of UniProt P21728 (whole entry, looked up): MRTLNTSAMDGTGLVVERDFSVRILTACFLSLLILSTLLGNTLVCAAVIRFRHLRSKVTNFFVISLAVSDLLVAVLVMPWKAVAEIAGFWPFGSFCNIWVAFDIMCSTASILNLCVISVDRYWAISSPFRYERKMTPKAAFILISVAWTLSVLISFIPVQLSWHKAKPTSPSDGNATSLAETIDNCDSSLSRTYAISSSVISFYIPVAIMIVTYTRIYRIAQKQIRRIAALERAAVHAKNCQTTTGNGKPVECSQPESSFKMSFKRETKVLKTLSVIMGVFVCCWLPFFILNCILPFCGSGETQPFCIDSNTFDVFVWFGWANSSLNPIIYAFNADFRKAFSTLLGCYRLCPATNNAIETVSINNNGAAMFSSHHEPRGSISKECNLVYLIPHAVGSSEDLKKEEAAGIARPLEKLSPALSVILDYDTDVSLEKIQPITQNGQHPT
Chain of UniProt P08173 (whole entry, looked up): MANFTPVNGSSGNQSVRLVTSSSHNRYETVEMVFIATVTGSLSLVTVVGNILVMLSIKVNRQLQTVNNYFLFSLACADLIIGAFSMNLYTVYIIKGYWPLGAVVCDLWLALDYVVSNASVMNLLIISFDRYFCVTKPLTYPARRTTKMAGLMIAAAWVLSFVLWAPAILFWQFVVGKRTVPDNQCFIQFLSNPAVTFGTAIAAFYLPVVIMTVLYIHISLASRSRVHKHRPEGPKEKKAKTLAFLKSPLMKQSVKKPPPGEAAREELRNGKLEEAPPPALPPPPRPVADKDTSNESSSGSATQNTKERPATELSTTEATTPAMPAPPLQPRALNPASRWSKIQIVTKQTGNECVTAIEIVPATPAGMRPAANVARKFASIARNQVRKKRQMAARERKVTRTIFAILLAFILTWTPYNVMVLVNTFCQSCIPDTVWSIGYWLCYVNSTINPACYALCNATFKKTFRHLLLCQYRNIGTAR
Chain of UniProt P28482 (whole entry, looked up): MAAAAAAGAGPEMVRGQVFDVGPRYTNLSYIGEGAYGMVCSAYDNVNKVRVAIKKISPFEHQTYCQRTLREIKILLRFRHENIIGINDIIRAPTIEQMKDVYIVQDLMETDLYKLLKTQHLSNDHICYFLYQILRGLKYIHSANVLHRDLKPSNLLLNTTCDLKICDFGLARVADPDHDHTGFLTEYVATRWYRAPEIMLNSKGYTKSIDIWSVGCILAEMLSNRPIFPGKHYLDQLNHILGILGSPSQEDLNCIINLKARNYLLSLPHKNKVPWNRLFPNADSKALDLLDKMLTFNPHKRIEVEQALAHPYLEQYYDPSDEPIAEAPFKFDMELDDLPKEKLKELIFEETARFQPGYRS

Study 1 — read-out: cell-free assay; concentration: 10 µM
SMILES: N#Cc1ccc(Nc2ccc3[nH]c(=O)[nH]c3c2)c(Cl)c1
target	inhibition
Sigma intracellular receptor 2 (TMEM97, Homo sapiens, UniProt Q5BJF2)	-4.12%
D(1A) dopamine receptor (DRD1, Homo sapiens, UniProt P21728)	-7.86%
Alpha-1D adrenergic receptor (ADRA1D, Homo sapiens, UniProt P25100)	-5.71%
Muscarinic acetylcholine receptor M2 (CHRM2, Homo sapiens, UniProt P08172)	3.51%
Muscarinic acetylcholine receptor M4 (CHRM4, Homo sapiens, UniProt P08173)	11.6%
Alpha-2C adrenergic receptor (ADRA2C, Homo sapiens, UniProt P18825)	4.16%
Alpha-1B adrenergic receptor (ADRA1B, Homo sapiens, UniProt P35368)	10%

Study 2 — read-out: enzyme activity; mode: inhibitor; concentration: 77 µM; reference: untreated
Target: DNA polymerase theta, ATPase domain (POLQ, Homo sapiens, UniProt O75417)
Chain of UniProt O75417 (whole entry, unmodified, looked up): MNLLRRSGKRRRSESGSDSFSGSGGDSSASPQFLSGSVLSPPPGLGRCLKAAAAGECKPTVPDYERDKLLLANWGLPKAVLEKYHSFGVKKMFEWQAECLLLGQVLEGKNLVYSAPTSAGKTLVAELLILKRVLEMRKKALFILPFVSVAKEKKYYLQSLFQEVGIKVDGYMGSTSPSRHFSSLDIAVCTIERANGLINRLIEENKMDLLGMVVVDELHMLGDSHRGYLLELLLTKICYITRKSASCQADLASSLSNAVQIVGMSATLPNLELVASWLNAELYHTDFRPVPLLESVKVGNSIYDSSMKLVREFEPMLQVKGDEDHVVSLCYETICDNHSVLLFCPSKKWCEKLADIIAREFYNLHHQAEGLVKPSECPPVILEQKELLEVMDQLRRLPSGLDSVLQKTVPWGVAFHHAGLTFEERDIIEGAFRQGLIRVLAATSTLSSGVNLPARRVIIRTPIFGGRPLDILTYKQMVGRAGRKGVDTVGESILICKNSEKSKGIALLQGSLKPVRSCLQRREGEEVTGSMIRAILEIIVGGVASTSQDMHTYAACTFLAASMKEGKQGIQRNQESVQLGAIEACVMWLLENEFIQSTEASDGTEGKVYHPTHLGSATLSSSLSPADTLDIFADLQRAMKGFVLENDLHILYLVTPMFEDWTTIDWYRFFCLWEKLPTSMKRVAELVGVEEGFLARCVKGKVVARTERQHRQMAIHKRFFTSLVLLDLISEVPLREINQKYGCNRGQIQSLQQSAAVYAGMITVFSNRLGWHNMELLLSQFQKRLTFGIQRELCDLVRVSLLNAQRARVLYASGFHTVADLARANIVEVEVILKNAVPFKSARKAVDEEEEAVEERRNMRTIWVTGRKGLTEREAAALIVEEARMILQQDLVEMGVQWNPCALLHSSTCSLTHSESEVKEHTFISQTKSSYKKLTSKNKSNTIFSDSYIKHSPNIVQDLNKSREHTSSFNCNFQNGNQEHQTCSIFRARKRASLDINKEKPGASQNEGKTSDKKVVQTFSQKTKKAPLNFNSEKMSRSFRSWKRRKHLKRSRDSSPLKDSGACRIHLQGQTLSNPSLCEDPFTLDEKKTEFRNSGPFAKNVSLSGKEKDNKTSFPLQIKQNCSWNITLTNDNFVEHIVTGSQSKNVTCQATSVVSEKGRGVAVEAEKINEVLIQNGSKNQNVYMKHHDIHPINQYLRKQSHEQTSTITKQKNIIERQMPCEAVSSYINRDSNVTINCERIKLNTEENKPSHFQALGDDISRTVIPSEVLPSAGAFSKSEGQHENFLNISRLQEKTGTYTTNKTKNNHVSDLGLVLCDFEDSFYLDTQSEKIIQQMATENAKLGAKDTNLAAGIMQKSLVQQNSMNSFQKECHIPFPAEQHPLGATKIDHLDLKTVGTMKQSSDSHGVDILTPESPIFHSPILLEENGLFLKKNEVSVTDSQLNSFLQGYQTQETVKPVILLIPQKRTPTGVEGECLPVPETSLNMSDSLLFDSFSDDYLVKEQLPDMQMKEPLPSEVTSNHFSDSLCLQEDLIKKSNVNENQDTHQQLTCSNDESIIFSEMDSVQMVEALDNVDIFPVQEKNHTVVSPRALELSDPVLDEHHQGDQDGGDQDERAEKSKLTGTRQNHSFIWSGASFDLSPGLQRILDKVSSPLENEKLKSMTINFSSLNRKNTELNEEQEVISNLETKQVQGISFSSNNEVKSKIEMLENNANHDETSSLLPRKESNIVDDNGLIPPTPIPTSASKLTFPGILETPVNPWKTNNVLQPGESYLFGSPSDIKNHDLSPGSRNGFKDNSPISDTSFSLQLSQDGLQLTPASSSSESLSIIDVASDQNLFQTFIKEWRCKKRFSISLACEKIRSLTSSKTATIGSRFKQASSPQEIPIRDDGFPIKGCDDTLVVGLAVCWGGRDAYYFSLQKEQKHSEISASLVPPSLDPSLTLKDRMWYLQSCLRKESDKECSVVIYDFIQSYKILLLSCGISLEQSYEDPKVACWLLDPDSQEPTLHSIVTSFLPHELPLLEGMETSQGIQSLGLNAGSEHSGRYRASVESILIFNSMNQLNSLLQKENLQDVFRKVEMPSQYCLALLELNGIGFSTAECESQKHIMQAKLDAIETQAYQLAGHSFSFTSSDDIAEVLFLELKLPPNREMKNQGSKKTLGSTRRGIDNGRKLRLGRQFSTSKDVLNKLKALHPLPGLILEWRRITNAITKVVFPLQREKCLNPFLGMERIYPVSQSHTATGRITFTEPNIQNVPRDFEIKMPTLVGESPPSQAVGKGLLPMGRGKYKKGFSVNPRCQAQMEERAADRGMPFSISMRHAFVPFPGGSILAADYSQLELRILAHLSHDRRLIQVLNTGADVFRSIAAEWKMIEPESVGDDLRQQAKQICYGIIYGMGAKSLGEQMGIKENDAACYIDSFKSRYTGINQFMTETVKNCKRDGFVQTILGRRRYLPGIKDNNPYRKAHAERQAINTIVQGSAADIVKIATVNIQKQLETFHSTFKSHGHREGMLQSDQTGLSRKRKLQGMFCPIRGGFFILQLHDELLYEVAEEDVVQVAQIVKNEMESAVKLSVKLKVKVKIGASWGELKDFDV
SMILES	remaining activity
CC[C@]1(O)C[C@H]2CN(CCc3c([nH]c4ccccc34)[C@@](C(=O)OC)(c3cc4c(cc3OC)N(C=O)[C@H]3[C@@](O)(C(=O)OC)[C@H](OC(C)=O)[C@]5(CC)C=CCN6CC[C@]43[C@@H]65)C2)C1	101%
Cc1cc(-c2ccccc2)nnc1NCCN1CCOCC1	99.1%
C=CC1=C(C)c2cc3[nH]c(cc4nc(cc5[nH]c(cc1n2)c(C)c5CCC(=O)O)C(CCC(=O)O)=C4C)c(C)c3C=C	106%
CCN(CC)CCOC(=O)[C@H](Cc1cccc2ccccc12)C[C@H]1CCCO1	101%
Nc1nc(Cl)nc2c1ncn2[C@@H]1O[C@H](COP(=O)(O)OP(=O)(O)OP(=O)(O)O)[C@H](O)C1O (stereo partly shown)	92.8%
Cn1c([N+](=O)[O-])cnc1COC(N)=O	96.8% and 83.3%
CSc1nc(-c2ccnc(NC(C)c3ccccc3)c2)c(-c2ccc(F)cc2)[nH]1 (stereo not shown)	107%
CCN1CCC[C@H]1CNC(=O)c1c(OC)ccc(Br)c1OC	96.4%
COc1cccc2c1C(=O)c1c(O)c3c(c(O)c1C2=O)C[C@@](O)(C(=O)CO)C[C@@H]3O[C@H]1C[C@H](N)[C@@H](O)[C@H](C)O1	53.4%

Study 3 — Compound: O=c1cc(N2CCOCC2)oc2c(-c3ccccc3)cccc12; read-out: enzyme activity; mode: inhibitor; concentration: 0.5 µM; reference: control
target	remaining activity [%]
Serine/threonine-protein kinase MARK2 (MARK2, Homo sapiens, UniProt Q7KZI7)	79.2
Mitogen-activated protein kinase 1 (MAPK1, Homo sapiens, UniProt P28482)	70.3
Hepatocyte growth factor receptor (MET, Homo sapiens, UniProt P08581)	127
cGMP-dependent protein kinase 2 (PRKG2, Homo sapiens, UniProt Q13237)	105
Dual specificity mitogen-activated protein kinase kinase 1 (MAP2K1, Homo sapiens, UniProt Q02750)	88.8
Myosin-IIIb (MYO3B, Homo sapiens, UniProt Q8WXR4)	104
Dual specificity protein kinase CLK3 (CLK3, Homo sapiens, UniProt P49761)	107
Serine/threonine-protein kinase MRCK beta (CDC42BPB, Homo sapiens, UniProt Q9Y5S2)	88.4
Cyclin-dependent kinase 1, with cyclin A (CDK1, Homo sapiens, UniProt P06493)	92
Mitogen-activated protein kinase 14 (MAPK14, Homo sapiens, UniProt Q16539)	87.7
RAC-beta serine/threonine-protein kinase (AKT2, Homo sapiens, UniProt P31751)	94
Tyrosine-protein kinase TXK (TXK, Homo sapiens, UniProt P42681)	93.6
Vascular endothelial growth factor receptor 2 (KDR, Homo sapiens, UniProt P35968)	87.2
Serine/threonine-protein kinase Nek3 (NEK3, Homo sapiens, UniProt P51956)	102

Study 4 — read-out: RNA clamping; method: fluorescence polarization; concentration: concentration not given; setting: mean of two replicates; added: FAM-labelled poly r(AG)8 RNA
Target: Eukaryotic initiation factor 4A-I (EIF4A1, Homo sapiens, UniProt P60842)
Chain of UniProt P60842 (whole entry, looked up): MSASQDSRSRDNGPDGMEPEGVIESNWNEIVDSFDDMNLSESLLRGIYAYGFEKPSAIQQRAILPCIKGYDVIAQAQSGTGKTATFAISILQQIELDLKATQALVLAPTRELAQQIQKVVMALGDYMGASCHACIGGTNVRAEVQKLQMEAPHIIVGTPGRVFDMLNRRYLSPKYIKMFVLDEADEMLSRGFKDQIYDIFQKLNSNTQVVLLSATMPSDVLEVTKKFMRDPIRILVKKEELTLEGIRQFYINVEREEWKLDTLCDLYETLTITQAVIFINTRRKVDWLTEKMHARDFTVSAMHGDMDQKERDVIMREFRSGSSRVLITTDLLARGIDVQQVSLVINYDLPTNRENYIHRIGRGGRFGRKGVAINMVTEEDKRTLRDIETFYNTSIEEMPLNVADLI
SMILES	fluorescence polarization change [mP]
C#CCN[C@@]12C(=O)[C@H](C(=O)OC)[C@@H](c3ccccc3)[C@]1(c1ccc(OC)cc1)Oc1cc(OC)cc(OC)c12	3.9
C#CCOc1cc(OC)c2c(c1)O[C@@]1(c3ccc(OC)cc3)[C@H](c3ccccc3)c3c(nc4n(c3=O)CCC4)[C@@]21O	27
C=CCOc1nc(-c2ccccc2)nc2c1[C@@H](c1ccccc1)[C@]1(c3ccc(OC)cc3)Oc3cc(OC)cc(OC)c3[C@]21O	0.7
COc1ccc([C@@]23Oc4cc(OC)cc(OC)c4[C@@](O)(C2=O)[C@H](c2ccccc2)[C@H]3c2ccccc2)cc1	8
CCOC(=O)[C@H]1[C@@H](O)[C@@]2(O)c3c(OC)cc(OC)cc3O[C@@]2(c2ccc(OC)cc2)[C@@H]1c1ccc(Br)cc1	1.6
C#CCCC1(CCOc2ccc([C@@H]3[C@@H](C(=O)N(C)OC)[C@@H](O)[C@@]4(O)c5c(OC)cc(OC)cc5O[C@@]34c3ccc(OC)cc3)cc2)N=N1	2.1
COc1ccc([C@@]23Oc4cc(OC)cc(OC)c4[C@]2(NCc2ccccc2)C(=O)C[C@H]3c2ccccc2)cc1	9.9
